Published values pooled from the literature.
Numbered parts are unrelated; each lists some results of a single study.
Sequence of UniProt P54756 (whole entry, looked up): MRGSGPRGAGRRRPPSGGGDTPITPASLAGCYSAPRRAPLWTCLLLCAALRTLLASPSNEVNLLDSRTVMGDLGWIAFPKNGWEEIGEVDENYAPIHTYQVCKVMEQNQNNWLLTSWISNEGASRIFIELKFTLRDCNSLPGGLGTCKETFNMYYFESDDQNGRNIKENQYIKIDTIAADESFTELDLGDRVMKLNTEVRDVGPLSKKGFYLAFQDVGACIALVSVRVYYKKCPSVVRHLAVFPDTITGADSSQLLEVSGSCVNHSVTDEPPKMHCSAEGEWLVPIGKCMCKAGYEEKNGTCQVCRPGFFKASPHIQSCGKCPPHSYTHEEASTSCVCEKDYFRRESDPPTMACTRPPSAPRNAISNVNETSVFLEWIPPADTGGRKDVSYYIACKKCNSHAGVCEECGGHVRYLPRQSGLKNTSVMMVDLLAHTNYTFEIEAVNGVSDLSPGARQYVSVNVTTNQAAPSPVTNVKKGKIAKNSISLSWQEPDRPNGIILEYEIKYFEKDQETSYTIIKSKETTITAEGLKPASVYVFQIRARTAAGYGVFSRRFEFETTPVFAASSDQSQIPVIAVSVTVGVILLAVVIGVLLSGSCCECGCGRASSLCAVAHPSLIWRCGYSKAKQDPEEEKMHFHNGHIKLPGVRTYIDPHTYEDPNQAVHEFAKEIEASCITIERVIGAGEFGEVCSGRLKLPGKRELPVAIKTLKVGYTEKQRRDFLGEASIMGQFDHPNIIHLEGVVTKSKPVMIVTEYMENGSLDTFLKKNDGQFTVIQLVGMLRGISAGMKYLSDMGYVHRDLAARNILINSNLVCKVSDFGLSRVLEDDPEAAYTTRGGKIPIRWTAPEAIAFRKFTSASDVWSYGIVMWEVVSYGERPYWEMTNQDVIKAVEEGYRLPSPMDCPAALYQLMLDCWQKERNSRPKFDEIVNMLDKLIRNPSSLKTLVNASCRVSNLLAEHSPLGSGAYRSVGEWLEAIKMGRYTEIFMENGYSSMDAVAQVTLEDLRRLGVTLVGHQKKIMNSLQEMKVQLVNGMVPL
Sequence of UniProt O14733 (whole entry, looked up): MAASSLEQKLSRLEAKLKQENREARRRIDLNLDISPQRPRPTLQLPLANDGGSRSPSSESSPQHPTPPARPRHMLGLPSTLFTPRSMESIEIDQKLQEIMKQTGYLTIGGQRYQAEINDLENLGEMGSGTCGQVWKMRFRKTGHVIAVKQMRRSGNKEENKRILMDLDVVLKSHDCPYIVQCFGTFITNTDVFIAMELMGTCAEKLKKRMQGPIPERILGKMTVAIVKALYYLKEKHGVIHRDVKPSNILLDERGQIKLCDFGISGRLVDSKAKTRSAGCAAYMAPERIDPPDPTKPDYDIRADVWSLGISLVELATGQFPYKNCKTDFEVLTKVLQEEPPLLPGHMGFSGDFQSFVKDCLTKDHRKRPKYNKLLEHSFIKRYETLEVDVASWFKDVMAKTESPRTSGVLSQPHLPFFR
Sequence of UniProt Q9BWU1 (whole entry, looked up): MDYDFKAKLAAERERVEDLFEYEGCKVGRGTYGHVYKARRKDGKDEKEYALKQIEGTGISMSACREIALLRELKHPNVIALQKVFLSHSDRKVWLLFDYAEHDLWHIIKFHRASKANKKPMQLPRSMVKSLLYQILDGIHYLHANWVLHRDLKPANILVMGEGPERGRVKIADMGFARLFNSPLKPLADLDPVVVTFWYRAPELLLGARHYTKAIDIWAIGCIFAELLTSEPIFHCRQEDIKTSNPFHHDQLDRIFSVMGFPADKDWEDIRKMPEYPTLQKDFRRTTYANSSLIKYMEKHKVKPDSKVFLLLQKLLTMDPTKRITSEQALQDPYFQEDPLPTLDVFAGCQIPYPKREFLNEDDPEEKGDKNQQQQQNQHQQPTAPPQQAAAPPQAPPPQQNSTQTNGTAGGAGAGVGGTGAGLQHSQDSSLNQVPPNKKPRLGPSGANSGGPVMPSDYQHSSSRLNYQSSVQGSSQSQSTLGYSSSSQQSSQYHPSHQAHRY
Sequence of UniProt Q9UM73 (whole entry, looked up): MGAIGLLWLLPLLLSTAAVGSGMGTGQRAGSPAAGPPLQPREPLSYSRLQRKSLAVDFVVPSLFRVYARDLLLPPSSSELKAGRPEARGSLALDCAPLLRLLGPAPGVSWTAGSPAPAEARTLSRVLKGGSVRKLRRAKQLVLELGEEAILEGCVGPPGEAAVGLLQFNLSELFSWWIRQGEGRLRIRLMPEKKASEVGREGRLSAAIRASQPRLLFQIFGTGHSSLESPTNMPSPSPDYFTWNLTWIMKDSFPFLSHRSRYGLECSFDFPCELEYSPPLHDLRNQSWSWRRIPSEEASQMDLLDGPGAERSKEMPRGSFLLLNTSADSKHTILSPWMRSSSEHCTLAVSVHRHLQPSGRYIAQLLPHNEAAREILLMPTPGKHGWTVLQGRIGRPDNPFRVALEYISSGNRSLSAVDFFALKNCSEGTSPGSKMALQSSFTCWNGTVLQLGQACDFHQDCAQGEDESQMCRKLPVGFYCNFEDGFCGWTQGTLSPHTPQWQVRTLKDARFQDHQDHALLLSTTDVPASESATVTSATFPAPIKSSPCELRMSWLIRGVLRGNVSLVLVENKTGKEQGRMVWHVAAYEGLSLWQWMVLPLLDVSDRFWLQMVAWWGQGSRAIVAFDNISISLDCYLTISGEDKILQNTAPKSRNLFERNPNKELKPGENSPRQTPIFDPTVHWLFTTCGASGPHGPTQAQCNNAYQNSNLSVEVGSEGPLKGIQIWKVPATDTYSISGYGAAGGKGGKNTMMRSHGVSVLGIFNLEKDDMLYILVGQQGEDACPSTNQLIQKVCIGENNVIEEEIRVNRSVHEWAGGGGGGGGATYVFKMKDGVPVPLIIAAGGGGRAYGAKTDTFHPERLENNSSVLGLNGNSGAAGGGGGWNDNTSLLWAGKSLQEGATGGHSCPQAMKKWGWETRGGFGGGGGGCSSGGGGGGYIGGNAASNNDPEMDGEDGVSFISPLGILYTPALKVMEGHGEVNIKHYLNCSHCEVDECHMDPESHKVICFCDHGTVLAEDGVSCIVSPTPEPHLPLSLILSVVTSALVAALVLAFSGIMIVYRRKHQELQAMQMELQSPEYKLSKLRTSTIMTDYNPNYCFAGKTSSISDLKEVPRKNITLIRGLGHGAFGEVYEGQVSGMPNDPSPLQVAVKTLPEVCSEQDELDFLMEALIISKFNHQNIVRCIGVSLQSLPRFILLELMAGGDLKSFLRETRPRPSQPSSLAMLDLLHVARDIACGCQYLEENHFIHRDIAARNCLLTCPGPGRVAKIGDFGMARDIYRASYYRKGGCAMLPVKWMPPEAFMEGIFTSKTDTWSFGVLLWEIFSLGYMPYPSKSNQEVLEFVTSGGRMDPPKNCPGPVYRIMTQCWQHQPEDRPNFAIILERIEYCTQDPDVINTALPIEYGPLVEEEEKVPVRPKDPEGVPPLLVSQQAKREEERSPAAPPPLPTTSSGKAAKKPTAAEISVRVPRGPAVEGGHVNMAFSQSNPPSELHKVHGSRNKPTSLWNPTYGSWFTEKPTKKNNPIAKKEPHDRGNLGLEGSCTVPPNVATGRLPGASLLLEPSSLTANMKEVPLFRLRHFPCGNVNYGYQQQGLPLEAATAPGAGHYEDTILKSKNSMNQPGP
Sequence of UniProt O75582 (whole entry, looked up): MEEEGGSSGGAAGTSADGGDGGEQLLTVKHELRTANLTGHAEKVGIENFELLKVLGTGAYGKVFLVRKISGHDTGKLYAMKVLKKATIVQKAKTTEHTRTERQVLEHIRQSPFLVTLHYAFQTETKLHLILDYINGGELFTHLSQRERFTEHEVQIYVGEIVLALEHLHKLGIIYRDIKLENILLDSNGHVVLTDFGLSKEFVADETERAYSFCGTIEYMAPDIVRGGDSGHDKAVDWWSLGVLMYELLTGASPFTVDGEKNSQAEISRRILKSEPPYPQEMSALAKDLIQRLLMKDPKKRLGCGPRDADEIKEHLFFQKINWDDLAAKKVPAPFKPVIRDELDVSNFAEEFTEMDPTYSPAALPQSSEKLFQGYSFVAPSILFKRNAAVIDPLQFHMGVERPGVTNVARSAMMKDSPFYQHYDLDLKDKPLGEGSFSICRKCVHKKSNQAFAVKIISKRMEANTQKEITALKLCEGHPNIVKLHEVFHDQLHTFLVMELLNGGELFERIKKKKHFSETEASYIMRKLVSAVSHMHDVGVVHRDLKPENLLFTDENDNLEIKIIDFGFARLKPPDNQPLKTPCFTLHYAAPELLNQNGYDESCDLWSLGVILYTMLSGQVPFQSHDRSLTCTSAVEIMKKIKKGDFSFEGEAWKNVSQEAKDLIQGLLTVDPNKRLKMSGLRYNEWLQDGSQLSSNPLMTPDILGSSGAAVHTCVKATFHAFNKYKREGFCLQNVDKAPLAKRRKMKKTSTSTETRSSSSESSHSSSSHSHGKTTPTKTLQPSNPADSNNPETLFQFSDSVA

Set 1
SMILES: CC(C)n1cnc(-c2ccc(F)cc2)c1-c1ncc(C(=O)Nc2ccc(N3CCN(C)CC3)cc2)[nH]1
Technique: phase 2a trial
Species: idiopathic pulmonary fibrosis patients
dose	setting	patients with osteoporosis
60 mg once daily	grade 2 emergent event	0%
30 mg once daily	grade 3 emergent event	0%
30 mg once daily	grade 5 emergent event	0%
all arms pooled	grade 5 emergent event	0%
30 mg once daily	grade 2 emergent event	0%
60 mg once daily	grade 4 emergent event	0%
60 mg once daily	grade 3 emergent event	0%

Set 2
Cell line: HaCaT
Tested at: 100 µM
Time: 18 h
Compound	viability [%]
CO/N=C(\C(=O)N[C@@H]1C(=O)N2C(C(=O)O)=C(C[N+]3(C)CCCC3)CS[C@H]12)c1csc(N)n1	107
COc1ccc2c(c1)C(=O)N(CCc1ccc(S(=O)(=O)NC(=O)NC3CCCCC3)cc1)C(=O)C2(C)C	84.5
Clc1ccc(C(Cn2ccnc2)OCc2ccc(Sc3ccccc3)cc2)c(Cl)c1 (centres unmarked)	18.8
COc1ccc(C(=O)NCc2ccc(OCCN(C)C)cc2)cc1OC	82.2
C/C(=C\C(=O)OCCCCCCCCC(=O)O)C[C@@H]1OC[C@H](C[C@@H]2O[C@H]2[C@@H](C)[C@H](C)O)[C@@H](O)[C@H]1O	116
Cc1nnc(C(=O)NC(C)(C)c2nc(C(=O)NCc3ccc(F)cc3)c(O)c(=O)n2C)o1	111
CC(=O)N[C@@H](CCC(N)=O)C(=O)O	108
Cc1cc(-n2c(=O)[nH]c(=O)n(C)c2=O)ccc1Oc1ccc(SC(F)(F)F)cc1	50.9

Set 3
Compound: CCCOc1ccc([C@H]2[C@H](C(=O)O)[C@@H](c3ccc4c(c3)OCO4)CN2CC(=O)Nc2c(CC)cccc2CC)cc1
Tested at: 1 µM
target	observed	technique	remaining binding
Cyclin-dependent kinase 2 (CDK2, Homo sapiens, UniProt P24941)	cell-free assay	competition with immobilised ligand	87%
Epidermal growth factor receptor (EGFR, Homo sapiens, UniProt P00533, L858R)	cell-free assay	competition with immobilised ligand	100%
Cyclin-dependent kinase-like 3 (CDKL3, Homo sapiens, UniProt Q8IVW4)	cell-free assay	competition with immobilised ligand	92%
Serine/threonine-protein kinase ICK (CILK1, Homo sapiens, UniProt Q9UPZ9)	binding	competition with immobilised ligand	59%
Serine/threonine-protein kinase D3 (PRKD3, Homo sapiens, UniProt O94806)	cell-free assay	competition with immobilised ligand	93%
Serine/threonine-protein kinase Nek6 (NEK6, Homo sapiens, UniProt Q9HC98)	cell-free assay	competition with immobilised ligand	96%
Ribosomal protein S6 kinase alpha-5, C-terminal kinase domain (RPS6KA5, Homo sapiens, UniProt O75582)	cell-free assay	competition with immobilised ligand	89%
Serine/threonine-protein kinase BRSK1 (BRSK1, Homo sapiens, UniProt Q8TDC3)	cell-free assay	competition with immobilised ligand	100%
Dual specificity mitogen-activated protein kinase kinase 7 (MAP2K7, Homo sapiens, UniProt O14733)	cell-free assay	competition with immobilised ligand	74%
Ephrin type-A receptor 6 (EPHA6, Homo sapiens, UniProt Q9UF33)	cell-free assay	competition with immobilised ligand	100%
Receptor-type tyrosine-protein kinase FLT3 (FLT3, Homo sapiens, UniProt P36888, D835Y)	cell-free assay	competition with immobilised ligand	100%
ALK tyrosine kinase receptor (ALK, Homo sapiens, UniProt Q9UM73)	cell-free assay	competition with immobilised ligand	100%
Ephrin type-A receptor 5 (EPHA5, Homo sapiens, UniProt P54756)	cell-free assay	competition with immobilised ligand	100%
Cyclin-dependent kinase 19 (CDK19, Homo sapiens, UniProt Q9BWU1)		competition binding	95%

Set 4
Target: Serine/threonine-protein kinase 3 (STK3, Homo sapiens, UniProt Q13188)
Sequence of UniProt Q13188 (whole entry, looked up): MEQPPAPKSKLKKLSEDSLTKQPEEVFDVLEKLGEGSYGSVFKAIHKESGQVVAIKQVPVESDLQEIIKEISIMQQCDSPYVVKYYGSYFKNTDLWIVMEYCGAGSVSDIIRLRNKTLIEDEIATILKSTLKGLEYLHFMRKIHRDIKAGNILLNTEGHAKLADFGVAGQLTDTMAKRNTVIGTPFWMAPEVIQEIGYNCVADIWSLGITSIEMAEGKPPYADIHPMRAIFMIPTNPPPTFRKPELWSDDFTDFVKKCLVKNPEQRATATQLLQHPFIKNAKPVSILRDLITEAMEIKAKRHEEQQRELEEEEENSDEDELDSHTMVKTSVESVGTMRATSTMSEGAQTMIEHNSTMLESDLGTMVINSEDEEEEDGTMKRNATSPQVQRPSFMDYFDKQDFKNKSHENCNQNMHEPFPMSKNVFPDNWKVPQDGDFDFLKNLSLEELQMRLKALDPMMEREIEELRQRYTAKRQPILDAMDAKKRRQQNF
Observed: enzyme activity
Mode: inhibitor
Tested at: 0.5 µM
Relative to: control
SMILES	remaining activity
FC(F)(F)c1ccc(/C=C/c2nc(COc3ccc(CCCCn4ccnn4)cc3)co2)cc1	95.5%
CNc1cc2c(Nc3cccc(Br)c3)ncnc2cn1	99.9%
C[C@@H](N)[C@H]1CC[C@H](C(=O)Nc2ccncc2)CC1	75.7%
O=C1NC(=O)/C(=C/c2ccc3c(c2)OC(F)(F)O3)S1	100%
O=c1c(-c2ccc(F)cc2)c(-c2ccncc2)[nH]n1-c1ccc(Cl)cc1	88.3%
Clc1ccc(Nc2nnc(Cc3ccncc3)c3ccccc23)cc1	92.1%
NC(=O)c1ccc(-c2nc(-c3ccc4c(c3)OCCO4)c(-c3ccccn3)[nH]2)cc1	90.6%
N#CC(c1ccnc(NCCc2cccnc2)n1)c1nc2ccccc2s1 (centres unmarked)	98.9%
NC(=O)c1cccc(-c2cc(Nc3ccc(OC(F)(F)F)cc3)ncn2)c1	93.6%
c1cc(-c2cnn3cc(-c4ccc(OCCN5CCCCC5)cc4)cnc23)ccn1	93.9%
CCN(CC)CCCCN1c2ccccc2Oc2ccc(Cl)cc21	106%
O=Nc1c(-c2c(O)[nH]c3ccccc23)[nH]c2ccccc12	19.9%
O=C(c1ccccc1)c1ccc(N2CCOCC2)cc1O	100%
CC(C)(C)c1nc2c3cc[nH]c(=O)c3c3cc(F)ccc3c2[nH]1	5.45%
O=C(O)/C=C/c1cc(Br)c(Br)c(Br)c1Br	91.4%
Nc1nc(Nc2ccc(S(N)(=O)=O)cc2)nn1C(=S)Nc1c(F)cccc1F	1.33%
CCCCc1c(-c2ccc(O)cc2)[nH]c2nccnc12	76.6%
N#C/C(=C(/N)SC1C=CC=CC1)c1cccc(C(O)c2ccncc2)c1 (centres unmarked)	97.6%
CC(C)N(CCC(=O)c1ccc2ccccc2c1)Cc1ccccc1	102%
COc1cc2c(Nc3ccc(Br)cc3F)ncnc2cc1OCC1CCN(C)CC1	97.5%
CC(C)n1cnc2c(Nc3cccc(Cl)c3)nc(NCCO)nc21	94.6%

Excerpt of the above (set 3):
target	observed	technique	remaining binding
Serine/threonine-protein kinase D3 (PRKD3, Homo sapiens, UniProt O94806)	cell-free assay	competition with immobilised ligand	93%
Serine/threonine-protein kinase Nek6 (NEK6, Homo sapiens, UniProt Q9HC98)	cell-free assay	competition with immobilised ligand	96%
Ribosomal protein S6 kinase alpha-5, C-terminal kinase domain (RPS6KA5, Homo sapiens, UniProt O75582)	cell-free assay	competition with immobilised ligand	89%
Serine/threonine-protein kinase BRSK1 (BRSK1, Homo sapiens, UniProt Q8TDC3)	cell-free assay	competition with immobilised ligand	100%
